Measured values of several laboratories.
Protocols differ between the studies behind these lines.
rep main protease: Replicase polyprotein 1ab, main protease (rep, Severe acute respiratory syndrome coronavirus 2, UniProt P0DTD1)

Cc1ccc(NS(=O)(=O)c2cccc(C(=O)NC3CCN(c4ncnc5[nH]cnc45)CC3)c2)cc1
relative infection (SARS-CoV-2; A549-ACE2, Wuhan-Hu-1; 0.823 µM; relative to: untreated): 86.6%

CN(C)c1cccc(C(=O)NCC2CCN(c3cc(-c4ccc(Cl)cc4)n[nH]3)CC2)c1
efficacy (SARS-CoV-2; cytopathic effect; USA_WA1/2020; retest, 8-point, duplicates): 19.5%

NCCCC[C@H](N[C@@H](CCc1ccccc1)C(=O)O)C(=O)N1CCC[C@H]1C(=O)O
viral replication inhibition (SARS-CoV-2; concentration not given, Paris laboratory): inactive

O=C(NCCCCN1CCOCC1)c1cc2ccccc2o1
inhibition (rep main protease; viral replication, Gluc reporter; SARS-CoV-2; 20 µM): -0.0737%

CN1CCC(OC(=O)C(Oc2ccc(Cl)cc2)Oc2ccc(Cl)cc2)CC1
EC50 (SARS-CoV-2; viral replication, high-content imaging screen; cell-based): > 100 µM

COc1ccc(C[C@@H]2c3cc(Oc4cc(C[C@@H]5c6cc(O)c(OC)cc6CCN5C)ccc4O)c(OC)cc3CCN2C)cc1
inhibition (SARS-CoV-2; cytopathic effect; Vero E6; 6.25 µM, first run): 0%

Cc1nn(-c2ccc(Cl)cc2)c2c1C(c1ccc(F)cc1F)C(C#N)=C(N)O2 (centres unmarked)
Ct value (SARS-CoV-2; RT-qPCR, refers to: viral RNA; Vero; 10 µM; higher means less virus): 25.5 cycles

O=C(Nc1cnccc1Cl)N1CCN(Cc2ccc3c(c2)OC(F)(F)O3)CC1
inhibition (SARS-CoV-2; viral replication; Vero E6, USA-WA1/2020; 2.5 µM): 40.8%

Cc1nn(-c2ccc(Cl)cc2)c2c1C(c1ccc(Cl)cc1Cl)C(C#N)=C(N)O2 (centres unmarked)
viral reduction (SARS-CoV-2; viral replication; Vero; 10 µM): 8.04%

O=C(/C=C/c1ccc(O)c(O)c1/C=C/c1ccc(O)c(O)c1)O[C@H](Cc1ccc(O)c(O)c1)C(=O)O
mean inhibition (SARS-CoV-2; cytopathic effect; Vero E6; 3.125 µM, replicate run): 0%

C#C[C@]1(OC(C)=O)CC[C@H]2[C@@H]3CCC4=CC(=NO)CC[C@@H]4[C@H]3CC[C@@]21CC (mixture of isomers)
EC50 (SARS-CoV-2; viral replication, high-content imaging screen; cell-based): > 100 µM

CCCN(CCC)CCNC(=O)c1cc(-c2ccc(Br)s2)nc2ccccc12
AC50 (SARS-CoV-2; cytopathic effect, cell-based CPE; USA_WA1/2020; round 2, 5-point dilution): 10 µM

CC(C)=CCN1Cc2cc(Cl)cc3[nH]c(=S)n(c23)C[C@@H]1C
EC90 (SARS-CoV-2; viral replication, inhibitor; Vero E6, USA-WA1/2020; 24 h): 0.487 µM

CN1CCN(CCCN2c3ccccc3Sc3ccc(C(F)(F)F)cc32)CC1
IC50 (SARS-CoV-2; viral replication, RT-qPCR; A549 expressing ACE2): 1.78 µM

COC(=O)C1(c2ccc(C)cc2)CC1CN1CCC(O)(c2ccccc2)CC1 (centres unmarked)
viral inhibition (SARS-CoV-2; Vero E6; concentration not given): inactive

Cc1nc(C(=O)N2CC[C@@H]([C@@H]3CCCN3C(=O)c3cc(O)ccc3Cl)C2)cc(=O)[nH]1
inhibition (rep main protease; enzyme activity, inhibitor; 5 µM): 13.3%

CNC(=O)[C@@H](NC(=O)[C@H](CC(C)C)[C@H](O)C(=O)NO)C(C)(C)C
viability difference (C2C12; 1 µM, with: KA venom; relative to: venom alone): 12.7%

Cc1nn(-c2ccc(Cl)cc2)c2c1C(c1ccc(I)cc1)C(C#N)=C(N)O2 (centres unmarked)
viral reduction (SARS-CoV-2; viral replication; Vero; 10 µM): 6.28%

Cn1cnc(Cn2c(=O)[nH]/c(=N\c3cc4cn(C)nc4cc3Cl)n(Cc3cc(F)c(F)cc3F)c2=O)n1
patients with adverse event (human, normal renal function; oral, 375 mg, vessel puncture site haemorrhage TEAE, Moderate severity): 0%

CC(C)CC(=O)N[C@H](C(=O)N[C@H](C(=O)N[C@@H](CC(C)C)[C@@H](O)CC(=O)N[C@@H](C)C(=O)N[C@@H](CC(C)C)[C@@H](O)CC(=O)O)C(C)C)C(C)C
viral replication inhibition (SARS-CoV-2; Vero E6; concentration not given, NYC laboratory): inactive

C=C[C@@H]1C[C@]1(NC(=O)[C@@H]1C[C@@H]2CN1C(=O)[C@H](C(C)(C)C)NC(=O)O[C@@H]1C[C@H]1CCCCCc1nc3ccc(OC)cc3nc1O2)C(=O)NS(=O)(=O)C1CC1.O
combination index (SARS-CoV-2; Vero E6; with: remdesivir): 0.6

Cc1noc2c(NC3CCOCC3)cc(-c3cccc(C(F)(F)F)c3)nc12
maximum response (SARS-CoV-2; cytopathic effect; USA_WA1/2020; retest, 8-point, duplicates): 17.3%

COc1cc2c(cc1OC)CN(CCc1ccc(NC(=O)c3cccc4c(=O)c5cccc(OC)c5[nH]c34)cc1)CC2
IC50 (SARS-CoV-2; viral replication, RT-qPCR; A549 expressing ACE2): 2.24 µM

CCOC1O[C@H]([C@@H](COCc2ccccc2)OCc2ccccc2)[C@H](OCc2ccccc2)[C@H]1O (some centres unmarked)
EC50 (SARS-CoV-2; viral replication, GFP plate reader screen; cell-based): > 50.1 µM

CCCC(=O)N(C)Cc1c(-c2ccc(Cl)cc2)nc2ccccn12
inhibition (SARS-CoV-2; viral replication; Vero E6, USA-WA1/2020; 2.5 µM): 43.5%

Cc1nn(-c2ccc(Cl)cc2)c2c1C(c1ccc(-c3ccccc3)cc1)C(C#N)=C(N)O2 (centres unmarked)
viral reduction (SARS-CoV-2; viral replication; Vero; 1 µM): 0.831%

CC(C)=CCc1c(O)ccc(C(=O)/C=C/c2ccc(O)cc2)c1O
mean inhibition (SARS-CoV-2; viral cytopathic effect; Vero E6; 25 µM): 0%

CC(C)(C)N1CCC(c2ccccc2)(c2ccccc2)CC1
maximum response (SARS-CoV-2; cytopathic effect; USA_WA1/2020; retest, 8-point, duplicates): 23.6%

CN1[C@@H]2CC[C@H]1C[C@@H](OC1c3ccccc3CCc3ccccc31)C2
EC50 (SARS-CoV-2; viral replication, GFP plate reader screen; cell-based): 7.41 µM

O=C(O[C@@H]1Cc2c(O)cc(O)cc2O[C@@H]1c1cc(O)c(O)c(O)c1)c1cc(O)c(O)c(O)c1
CPE inhibition (SARS-CoV-2; viral replication; Vero E6; 50 µM): 90%

Nc1ncnc2c([C@@H]3N[C@H](CO)[C@@H](O)[C@H]3O)c[nH]c12
inhibition (Marburg virus; surface glycoprotein expression; HeLa, Musoke; 25 µM, 1 h): 90.8%

CCc1ccc(Sc2cc(C(=O)NCCCN3CCC(C)CC3)c3ccccc3n2)cc1
AC50 (SARS-CoV-2; cytopathic effect, cell-based CPE; USA_WA1/2020; round 1, 5-point dilution): 3.55 µM

CC(=O)O[C@H]1Cc2ccccc2N(C(N)=O)c2ccccc21
IC50 (SARS-CoV-2; viral replication; Huh-7): > 2 µM

CC(C)(C)[C@H](NC(=O)C(F)(F)F)C(=O)N1C[C@H]2[C@@H]([C@H]1C(=O)N[C@H](C#N)C[C@@H]1CCNC1=O)C2(C)C
inhibition (SARS-CoV-2; viral replication, infectious virus; Vero E6; 0.037 µM): 16%

NCCCC(N)(C(=O)O)C(F)F (centres unmarked)
IC50 (SARS-CoV-2; viral replication; Huh-7): > 2 µM

CCCCNC(=O)C1CCCN(Cc2nc(-c3ccc(Cl)cc3)oc2C)C1 (centres unmarked)
maximum response (SARS-CoV-2; cytopathic effect; USA_WA1/2020; retest, 8-point, duplicates): 24.9%

CCC(C)n1ncn(-c2ccc(N3CCN(c4ccc(OC[C@H]5CO[C@](Cn6cncn6)(c6ccc(F)cc6F)O5)cc4)CC3)cc2)c1=O (some centres unmarked)
EC50 (SARS-CoV-2; viral replication, high-content imaging screen; cell-based): > 100 µM

[H]/N=C(/N)c1ccc(NCc2nc3cc(C(=O)N(CCC(=O)O)c4ccccn4)ccc3n2C)cc1
inhibition (rep main protease; reporter gene (mKate2), inhibitor; 20 µM): -0.698%

Cc1[nH]c(/C=C2\C(=O)Nc3ccccc32)c(C)c1CCC(=O)O
EC50 (SARS-CoV-2; viral replication, high-content imaging screen; cell-based): > 25.1 µM

CCN(CC)CCNC(=O)c1[nH]c2ccccc2c1Sc1ccc(Cl)cc1
maximum response (SARS-CoV-2; cytopathic effect; USA_WA1/2020; retest, 8-point, duplicates): 91.2%

C=CC[N+]1([C@H]2C[C@H]3[C@@H]4CC[C@H]5C[C@H](O)[C@@H](N6CCOCC6)C[C@]5(C)[C@H]4CC[C@]3(C)[C@H]2OC(C)=O)CCCC1
IC50 (SARS-CoV-2; viral replication; Huh-7): > 2 µM

C[C@H](CS)C(=O)N1CCC[C@H]1C(=O)O
viral replication inhibition (SARS-CoV-2; concentration not given, Paris laboratory): inactive

COc1ccc(C(CN(C)C)C2(O)CCCCC2)cc1 (centres unmarked)
IC50 (SARS-CoV-2; viral replication; A549 expressing ACE2; inactive set pIC50 4): > 10 µM

COc1ccc2cc(-c3cc(-c4cc(Cl)cc(Cl)c4)nn3[C@@H](C)c3ccc(C(=O)NCCC(=O)O)cc3)ccc2c1
EC50 (SARS-CoV-2; viral replication, GFP plate reader screen; cell-based): > 100 µM

CC[C@H](C)[C@H](NC(=O)[C@H](CC(C)C)NC(=O)[C@H](Cc1c[nH]c2ccccc12)NC(=O)[C@H](CCC(N)=O)NC(=O)[C@@H](NC(=O)[C@H](Cc1ccccc1)NC(=O)[C@H](C)NC(=O)[C@H](CCCCNC(=O)COCCOCCNC(=O)COCCOCCNC(=O)CC[C@H](NC(=O)CCCCCCCCCCCCCCCCCCC(=O)O)C(=O)O)NC(=O)[C@H](CCC(N)=O)NC(=O)[C@H](C)NC(=O)[C@@H](NC(=O)[C@H](CCCCN)NC(=O)[C@H](CC(=O)O)NC(=O)[C@H](CC(C)C)NC(=O)C(C)(C)NC(=O)[C@@H](NC(=O)[C@H](CO)NC(=O)[C@H](Cc1ccc(O)cc1)NC(=O)[C@H](CC(=O)O)NC(=O)[C@H](CO)NC(=O)[C@@H](NC(=O)[C@H](Cc1ccccc1)NC(=O)[C@@H](NC(=O)CNC(=O)[C@H](CCC(=O)O)NC(=O)C(C)(C)NC(=O)[C@@H](N)Cc1ccc(O)cc1)[C@@H](C)O)[C@@H](C)O)[C@@H](C)CC)[C@@H](C)CC)C(C)C)C(=O)N[C@@H](C)C(=O)NCC(=O)NCC(=O)N1CCC[C@H]1C(=O)N[C@@H](CO)C(=O)N[C@@H](CO)C(=O)NCC(=O)N[C@@H](C)C(=O)N1CCC[C@H]1C(=O)N1CCC[C@H]1C(=O)N1CCC[C@H]1C(=O)N[C@@H](CO)C(N)=O
subjects feeling hot (healthy subjects; all MAD doses): 28.6%

CCCN(CCC)CCCNC(=O)C1CCCN(Cc2nc(-c3ccc(Cl)cc3)oc2C)C1 (centres unmarked)
AC50 (SARS-CoV-2; cytopathic effect; USA_WA1/2020): 12.6 µM

[N-]=[N+]=N[C@]1(CO)O[C@@H](n2ccc(N)nc2=O)[C@@H](F)[C@@H]1O
viral replication (SARS-CoV-2; Vero E6, USA-WA1/2020 nLuc; concentration not given, regardless of pre-treatment duration): no inhibition

CN(C)CCCn1cc(-c2ccccc2)c(-c2ccccc2)n1
EC50 (SARS-CoV-2; viral replication, GFP plate reader screen; cell-based): 14.5 µM

CS(=O)(=O)c1ccc(C2=C(c3ccccc3)C(=O)OC2)cc1
IC50 (SARS-CoV-2; viral replication; Huh-7): > 2 µM

CC1CCN(CCCC(=O)c2ccc(F)cc2)CC1
IC50 (SARS-CoV-2; viral replication, RT-qPCR; A549 expressing ACE2): > 10 µM

Some of these lines once more:
CC(C)(C)N1CCC(c2ccccc2)(c2ccccc2)CC1
maximum response (SARS-CoV-2; cytopathic effect; USA_WA1/2020; retest, 8-point, duplicates): 23.6%

CN1CCN(CCCN2c3ccccc3Sc3ccc(C(F)(F)F)cc32)CC1
IC50 (SARS-CoV-2; viral replication, RT-qPCR; A549 expressing ACE2): 1.78 µM

CC(C)=CCc1c(O)ccc(C(=O)/C=C/c2ccc(O)cc2)c1O
mean inhibition (SARS-CoV-2; viral cytopathic effect; Vero E6; 25 µM): 0%

Cc1ccc(NS(=O)(=O)c2cccc(C(=O)NC3CCN(c4ncnc5[nH]cnc45)CC3)c2)cc1
relative infection (SARS-CoV-2; A549-ACE2, Wuhan-Hu-1; 0.823 µM; relative to: untreated): 86.6%

CC1CCN(CCCC(=O)c2ccc(F)cc2)CC1
IC50 (SARS-CoV-2; viral replication, RT-qPCR; A549 expressing ACE2): > 10 µM

Cc1nc(C(=O)N2CC[C@@H]([C@@H]3CCCN3C(=O)c3cc(O)ccc3Cl)C2)cc(=O)[nH]1
inhibition (rep main protease; enzyme activity, inhibitor; 5 µM): 13.3%
